Measurements pooled from the literature.
Each numbered part is a random draw from the data of one study; scales do not carry over between parts.

Sample 1 — method: RNA Bind-n-Seq; form: RNA; matrix: in vitro; tested at: not given; baseline: input RNA pool; direction: higher = stronger binding; quantity: bound/input enrichment
Target: RING finger protein unkempt homolog, zinc fingers 1-6, GST-SBP tag (UNK, Homo sapiens, UniProt Q9C0B0, residues 30-357)
Notes: RNA with constant flanks, human and mouse sites, ends assumed
Shared flanks, not repeated: GGGAGUUCUACAGUCCGACGAUC … CAACAGAGGAUUGAGCAUCA
Residues (chain): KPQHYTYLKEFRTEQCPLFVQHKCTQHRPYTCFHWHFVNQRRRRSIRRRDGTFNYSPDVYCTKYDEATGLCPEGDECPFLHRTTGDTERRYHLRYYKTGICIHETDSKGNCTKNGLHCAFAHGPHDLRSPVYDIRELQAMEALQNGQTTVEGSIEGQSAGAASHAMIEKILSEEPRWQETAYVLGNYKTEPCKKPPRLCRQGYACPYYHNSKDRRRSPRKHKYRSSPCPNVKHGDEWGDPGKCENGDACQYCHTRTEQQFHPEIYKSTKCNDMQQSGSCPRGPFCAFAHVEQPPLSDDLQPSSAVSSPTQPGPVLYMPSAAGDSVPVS
CGGAUCCAUUGCAGUAAAUCCUCAGUCAGGAGCAGGAGAAGCAGCCCUAAGAGAAAGCGUAAUAGACCCUGUGCAAGUCAUCAGUCGCAUUCGGUAUGAGUGGUUUGUUUUUAUUUGGAA: 0.232 ratio
GAAAGGGACAGGUUCAUGCUUUGUGGAAGAAAACACAUAGGAGGGAUUUAGUAUGCAGGAAAGAGGUUUUCUACAAAUUGAGUUUUGCUUUUAUUGCCCGCAGUAGAUAGAUAUUUAGAA: 24.1 ratio
GCUGAUCCUGAUGAGAUGAGAAUGCAGGCACUAUUAAUCAGAGAACGUAUUCUUGGUCCUUCUCAUCCUGAUACCUCUUACUAUAUUAGAUAUAGAGGCGCUGUCUAUGCAGACUCUGGA: 0.18 ratio
UUGGAAGGGCUUCACACCAAGCUGGGGAACAUCAAGACCUUAAACCUGGCAGGCAACCUCCUAGAGAGUCUGAGUGGCCUGCACAAGCUCUACUCACUGGUCAACCUGGAUCUCCGGGAC: 0.141 ratio
CAGAUUUAUACUCCUGACGUGUCUCAUUCACAGCUAAAUAAUAGGCCAUAGGACUUUUGGUAGGUUUAAACUUUUAAUUCUGUAUUUCAUGAUUAUAAGUCUUGCUAGAAUUUUUUCUAA: 2.67 ratio
GAGGUUGGAGGUGGUGCUGCUGGGGAACGGGAGCUGGAUGAGGGUCGAGCACGCACGCAUGCAUGCCAAGCACCGUGGCCAUGAAGCUAUGCAUGCUGAAAUGGUCCUCAUCCUCAUCGC: 0.105 ratio
UCUGUCUGACUCCUGGGUCUGUGCGCCAUGGCAUGAGUGUUUUCUAGUAGUAGACUGGAGUAGUAGACUGUUUCUAAGAACAGAUGAUCUGGUUCCUGAUGUGUAGAGACUCUUAUGUAC: 0.419 ratio
GAGGGAGAUGGUGGCCCUAACACAGGGGGAAUGGGAGCCUAUUGUCCAGCCCCUCAGGUUUCUAAUGAUCUAUUACUAAAAAUUAAAGAUACUGUUCUUCAGAGGACAGUGGAUGGCAUG: 0.77 ratio
UCUGCUCGGAAGAUGCGUCUGGGAGAUGCUGUUGAACAGGGUGUGAUUAACAACUCAGUAUUAGGCUAUUUUAUUGGCCGCAUCUACCUCUACCUCACGAAGGUUGGAAUAUCUCCUGAU: 0.345 ratio
AAGCGGGGAGAAGAGCCGGCUGAGCCCGCUGAGCCGGAGCCCACAGAAGCAUGGAAGGUGGAAAAAACCCACACCGAGGUCACAGUACCUACCUCAAAUGGUGACCAAACGCAGAAAAAG: 0.0859 ratio
UUUAAAGAAAAUACAAAGAUGCAGUUUCUGCAGGGUGUGGCGUGGACCAGUGCUGCCGACCAUAGCUCAGAGAGCCCUGCCCCUGCCUCACUGCACUGCAGCCUCCUCGGAGGCCGCACC: 0.183 ratio

Sample 2 — method: RNA Bind-n-Seq; form: RNA; matrix: in vitro; tested at: 20 nM; notes: 6-mer, flanks averaged, single round; with: 150 mM LiCl; baseline: input library; direction: higher = stronger binding; quantity: 6-mer enrichment (R)
Target: TAR DNA-binding protein 43, full length, His tag (TARDBP, Homo sapiens, UniProt Q13148, residues 1-414)
UGGUCA: 0.914
AACUUC: 0.854
CCAAAC: 0.821
GGCCGG: 1.1
AUUUCC: 0.958
AGUGAG: 1.24
AAGUGG: 1.15
UCUCCC: 1.1
GCUUUG: 1.06
GUAGGG: 1.24
CUCGAA: 0.781
CUAACG: 0.798
GGGGAG: 1.42
GACGAG: 0.962
GCCUUC: 0.942
CAAUGA: 0.856
ACCGUU: 0.861
UAUCAU: 0.9
UGGGAU: 1.09
CCGGCC: 0.957
CGUUCC: 0.895
CUGUGG: 1.12
GCAUAA: 0.901
CCGACA: 0.819
AGUGCA: 1

Sample 3 — method: protein binding microarray; form: double-stranded DNA, one strand shown; matrix: in vitro; tested at: not given; baseline: not given; direction: higher = stronger binding; quantity: E-score
Target: Histone acetyltransferase KAT6A, winged helix 1, GST fusion (KAT6A, Homo sapiens, UniProt Q92794, residues 1-85)
Notes: 8-mer, flanks averaged, mean of 2 arrays, mostly near background
Target sequence (chain): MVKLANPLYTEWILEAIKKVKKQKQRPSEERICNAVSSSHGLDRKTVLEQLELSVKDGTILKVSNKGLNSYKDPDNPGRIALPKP
ATACTTGG: -0.247
AGGTGATC: -0.238
CTGCCTAC: -0.0147
AGCTATAG: -0.0528
ACAGGCGA: -0.127
GCCCAACC: -0.134
ATGATCCA: -0.0657
AGAAGGCC: 0.124
AGTATTCC: -0.0545
GCCAGCGA: 0.0727
AAAGGATT: -0.245
CTTATTAA: -0.0774
AATATGTA: -0.133
ACTCTTCT: -0.157
ATTGGGGC: -0.0705
GACCTACC: -0.0862
AAATGGAC: -0.0427

Sample 4 — method: aptamer microarray, sandwich; form: DNA with 2'F-ANA; matrix: in vitro; tested at: 200 nM; with: Cy3 exosite-II aptamer, 400 nM; direction: higher = stronger binding; quantity: mean fluorescence intensity; oligonucleotide: GGTTGGTGTGGTTGG
Target: Prothrombin, mature alpha-thrombin (F2, Homo sapiens, UniProt P00734)
Notes: whole 15-mer aptamer, many near background
2'F-ANA at 7 10 12 15: 240 a.u.
2'F-ANA at 1 2 3 4 5 7 13 14: 44 a.u.
2'F-ANA at 1 3 6 7 8 11 13: 349 a.u.
2'F-ANA at 2 3 6 9 13 14 15: 290 a.u.
2'F-ANA at 2 7 9 11 12 15: 578 a.u.
2'F-ANA at 1 2 3 4 5 6 8 9 10 11 12 13: 48.9 a.u.
2'F-ANA at 1 6 7 8 9 10 11 12 13 15: 120 a.u.
2'F-ANA at 1 3 5 6 7 8 9 10 11 12: 51.2 a.u.
2'F-ANA at 4 5 6 7 8 10 12 13 15: 83.2 a.u.
2'F-ANA at 3 4 5 7 9 10 12 14 15: 52 a.u.
2'F-ANA at 2 4 5 10 11 12 13 15: 49.9 a.u.
2'F-ANA at 1 4 5 6 7 8 9 11 14: 51.6 a.u.
2'F-ANA at 2 3 4 5 6 7 8 9 10 11 12 13 14: 51.7 a.u.
2'F-ANA at 1 2 3 4 7 8 9 12 14 15: 80.5 a.u.
2'F-ANA at 1 3 4 5 6 14 15: 59.7 a.u.
2'F-ANA at 1 3 4 6 9 11 12 13 14 15: 66.4 a.u.
2'F-ANA at 2 4 5 7 9: 71.4 a.u.
2'F-ANA at 2 5 7 9 10 11 15: 48.3 a.u.
2'F-ANA at 1 2 4 5 7 11 12: 74.6 a.u.

Sample 5 — method: RNA Bind-n-Seq; form: RNA; matrix: in vitro; tested at: 365 nM; baseline: no-protein control; direction: higher = stronger binding; quantity: RBNS enrichment (R)
Target: RNA binding protein fox-1 homolog 2, RRM domain, GST-SBP tag (RBFOX2, Homo sapiens, UniProt O43251-10, residues 100-194)
Notes: natural RNA segment, single round, ends assumed
Shared flanks, not repeated: GGGAGUUCUACAGUCCGACGAUC … UGGAAUUCUCGGGUGCCAA
Construct (chain): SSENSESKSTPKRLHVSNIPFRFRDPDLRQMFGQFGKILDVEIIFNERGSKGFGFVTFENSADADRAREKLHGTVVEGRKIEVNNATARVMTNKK
GCAAGGGGCUGCAUGACCUACCAGGACAGAACUUUCCCCAAUUACAGGGUGACUCACAGCCGCAUUGGUGACUCACUUCAAUGUGUCAUUUCCGGCUGCUGUGUGUGAGC: 17.1
GUAAUAAGGAGGGAGCUCUGGACUCAAAGCAGCUGGCUUCCACAGCUGAAGGUUUUACAUUACGUUUUCAAUUAAGUUGCCAACGUUUUAACAACUGGAGAAUGGUAUUC: 0.66
GUUACCAACCUAAAAAUAAAAAAUCCGAACAGCAUACUUGAAGAAUGUAAUACUCAAACUCUCAGUGCUUCCUUAUGGUUUCUAAUAGGAUUUUUUAUUAUUGUUAUUAU: 0.695
ACCUACUAGUGGUCCCUGGCAGCUGUGGGCAAGGCCUGGGUAGUCAGACUGUUAACACCACAGUCCUUAGCAGUGGUCAAUGUCCAGUUCCCCCGCACAGGUCCUGCUUC: 0.318
CAUUUUAAUUUGUUCUUGAUUUGUAUGAUGUUGGGGGCGUUAGCAUUACGUGUUGAAUAUUUUGAGUAAGAAGAAAAGAAUCCAUCUUCAGAAUAUAGGGUUGUUCUUUG: 1.64
UUCCUUUCACUACCUUCUUUUUUGGGGGUAGUUGGAAGGGACUGAAAUUGUGGGGGGAAGGUAGGAGGCACAUCAAUAAAGAGGAAACCACCAAGCUGAACUGAAUUUUG: 0.435
AUGACCAGAAAGGAUGGAAUGGCUUAAGUAAACUAAGGGUUCACUUCUAGAGCUGAGAAGCAGGGUCAAAGCACAAUACUGGGCAAUUCAGAGCAUGGUUAGAAGAGGAA: 2.16
AUUACUUUAACUAUUGUUAUAAAAAGCCUGCCAUUUUUAAUAUGUGGUUUGGGGGAUUUUUGUUUGUUUUUCCUGUUUGGGGGUUUUGUUUGUUGUUUUGGUUUUUUUUG: 4.36
CUUGAUUUUUUUCAAGUGUGGUAUUCAUUUUUAACCCAUUUCCGCUUUAGGUCUUCCUGGUUUUUCAUAGUCAACAUUCCACUGAAAUGUACAUAGAAUUGCCAGUGUAU: 0.451
ACUCUAGGGCCAGACCACUCUCUGUAUGGACCAGACCAUCUUCCCAAACCCAUGGUGCUUUCCCCCCGACCCCACUCAACCUACAUUCUGAGGAGGGGAGGGAUGGAUCA: 0.269
AAGUGCAAUUCCUGAAGGCAUCAGGCUCUUCUCUCCCAGGCUCUCCUGCCCACUGUGUUGUUUGUAGGACACCCCCACACCCACUCAUACACAGCCUGCAUCUCCACAGG: 0.638
CAGUAUACACAGGACAUUGUUGCUGCCGCCACCGAGACUGGUUUUCUGUCCCUGAGAACAUGACGUUUGUGACGUCCUACCCAUUGGGAGUCCUUCACACCCCAGCCAUC: 0.318

For quick reference, copied from above (sample 5):
GCAAGGGGCUGCAUGACCUACCAGGACAGAACUUUCCCCAAUUACAGGGUGACUCACAGCCGCAUUGGUGACUCACUUCAAUGUGUCAUUUCCGGCUGCUGUGUGUGAGC: 17.1
GUAAUAAGGAGGGAGCUCUGGACUCAAAGCAGCUGGCUUCCACAGCUGAAGGUUUUACAUUACGUUUUCAAUUAAGUUGCCAACGUUUUAACAACUGGAGAAUGGUAUUC: 0.66
GUUACCAACCUAAAAAUAAAAAAUCCGAACAGCAUACUUGAAGAAUGUAAUACUCAAACUCUCAGUGCUUCCUUAUGGUUUCUAAUAGGAUUUUUUAUUAUUGUUAUUAU: 0.695
ACCUACUAGUGGUCCCUGGCAGCUGUGGGCAAGGCCUGGGUAGUCAGACUGUUAACACCACAGUCCUUAGCAGUGGUCAAUGUCCAGUUCCCCCGCACAGGUCCUGCUUC: 0.318
CAUUUUAAUUUGUUCUUGAUUUGUAUGAUGUUGGGGGCGUUAGCAUUACGUGUUGAAUAUUUUGAGUAAGAAGAAAAGAAUCCAUCUUCAGAAUAUAGGGUUGUUCUUUG: 1.64
UUCCUUUCACUACCUUCUUUUUUGGGGGUAGUUGGAAGGGACUGAAAUUGUGGGGGGAAGGUAGGAGGCACAUCAAUAAAGAGGAAACCACCAAGCUGAACUGAAUUUUG: 0.435
AUGACCAGAAAGGAUGGAAUGGCUUAAGUAAACUAAGGGUUCACUUCUAGAGCUGAGAAGCAGGGUCAAAGCACAAUACUGGGCAAUUCAGAGCAUGGUUAGAAGAGGAA: 2.16
AUUACUUUAACUAUUGUUAUAAAAAGCCUGCCAUUUUUAAUAUGUGGUUUGGGGGAUUUUUGUUUGUUUUUCCUGUUUGGGGGUUUUGUUUGUUGUUUUGGUUUUUUUUG: 4.36
CUUGAUUUUUUUCAAGUGUGGUAUUCAUUUUUAACCCAUUUCCGCUUUAGGUCUUCCUGGUUUUUCAUAGUCAACAUUCCACUGAAAUGUACAUAGAAUUGCCAGUGUAU: 0.451
ACUCUAGGGCCAGACCACUCUCUGUAUGGACCAGACCAUCUUCCCAAACCCAUGGUGCUUUCCCCCCGACCCCACUCAACCUACAUUCUGAGGAGGGGAGGGAUGGAUCA: 0.269
AAGUGCAAUUCCUGAAGGCAUCAGGCUCUUCUCUCCCAGGCUCUCCUGCCCACUGUGUUGUUUGUAGGACACCCCCACACCCACUCAUACACAGCCUGCAUCUCCACAGG: 0.638
CAGUAUACACAGGACAUUGUUGCUGCCGCCACCGAGACUGGUUUUCUGUCCCUGAGAACAUGACGUUUGUGACGUCCUACCCAUUGGGAGUCCUUCACACCCCAGCCAUC: 0.318
